Results pooled from the literature.
Each line is one published result; not all experiments were run side by side.
EGFR L858R: Epidermal growth factor receptor (EGFR, Homo sapiens, UniProt P00533, L858R)
EGFR del747-752/P753S: Epidermal growth factor receptor (EGFR, Homo sapiens, UniProt P00533, del747-752/P753S)
EGFR: Epidermal growth factor receptor (EGFR, Homo sapiens, UniProt P00533)

[2H]c1cc(C)c(NC(=O)c2cnc(Nc3cc(N4CCCCC4)nc(C)n3)s2)c(Cl)c1
inhibition (EGFR L858R; 0.01 µM): < 30%

C=CC(=O)N1CCC(COCC(=O)N2CCN(c3nc(-c4cnc(N)nc4C(F)F)nc(N4CCOC[C@@H]4C)n3)CC2)CC1
remaining binding (EGFR del747-752/P753S; KINOMEscan; 1 µM; relative to: DMSO control): 100%

CCOc1cc(N2CCN(C)CC2)ccc1Nc1nc(N)n(C(=O)NCc2ccccc2S(=O)(=O)C(C)C)n1
remaining activity (EGFR (Homo sapiens, UniProt P00533, G719S); enzyme activity; 10 µM; relative to: control): 1.3%

CC(C)Cc1ccc(-c2nn(-c3ccc(S(C)(=O)=O)cc3)cc2/C=N/N=c2\[nH]c(-c3ccc([N+](=O)[O-])cc3)cs2)cc1
inhibition (EGFR L858R; kinase activity, inhibitor; 0.1 µM): 47%

CC(C)C[C@H](NC(=O)[C@H](CO)NC(=O)[C@H](CO)NC(=O)CNC(=O)[C@@H]1CCCN1C(=O)[C@H](Cc1ccc(O)cc1)NC(=O)[C@H](CC(C)C)NC(=O)[C@H](CO)NC(=O)[C@H](CS)NC(=O)[C@H](CC(C)C)NC(=O)[C@@H](N)CC(C)C)C(=O)O
kon (Epidermal growth factor receptor, extracellular domain (EGFR, Homo sapiens, UniProt P00533); binding, first site, surface plasmon resonance; immobilised soluble EGFR; model, binding, one to two): 171 M⁻¹ s⁻¹

COc1cc(N2CCN(C)CC2)ccc1Nc1nc(N)n(C(=O)NCc2c(Cl)cccc2Cl)n1
remaining activity (EGFR (Homo sapiens, UniProt P00533, L858R/T790M); enzyme activity; 10 µM; relative to: control): 11%

COc1ccc(-c2nn(-c3ccc(S(C)(=O)=O)cc3)cc2/C=N/N=c2\[nH]c(-c3ccc(Br)cc3)cs2)cc1
inhibition (EGFR; kinase activity, inhibitor; 1 µM): 70.3%

C[C@@H](c1ccc(-n2cnc3c(N)ncnc32)cc1)N1CCc2nn(C)c(Cc3ccccc3)c2C1=O
remaining binding (EGFR del747-752/P753S; KINOMEscan; 0.1 µM; relative to: DMSO control): 78%

COc1cc(N2CCN(C)CC2)ccc1Nc1nc(N)n(C(=O)NCc2ccccc2S(=O)(=O)C(C)C)n1
remaining activity (EGFR del747-752/P753S; enzyme activity; 10 µM; relative to: control): 4.4%

COc1ccc(-c2nn(-c3ccc(S(C)(=O)=O)cc3)cc2C=N/N=c2\[nH]c(-c3ccc([N+](=O)[O-])cc3)cs2)cc1
inhibition (EGFR; kinase activity, inhibitor; 0.01 µM): 27.4%

C=CC(=O)N1CCC(C(=O)NCC(=O)N2CCN(c3nc(-c4cnc(N)nc4C(F)F)nc(N4CCOCC4)n3)CC2)CC1
remaining binding (EGFR (Homo sapiens, UniProt P00533, L861Q); KINOMEscan; 1 µM): 93%

O=C(NC1CCC1)c1ccc2nc(-c3cccc(NS(=O)(=O)NCCN4CCCCC4)c3)cn2c1
remaining activity (EGFR L858R; enzyme activity; 10 µM): 100%

COc1cc(N2CCN(C)CC2)ccc1Nc1nc(N)n(C(=S)NCc2c(Cl)cccc2Cl)n1
remaining activity (EGFR (Homo sapiens, UniProt P00533, G719C); enzyme activity; 10 µM; relative to: control): 0.5%
